{"data": "Experimental data from different studies", "note": "Every numbered part comes from another study and shows a few of its results, in no order.", "chain of UniProt P42685 (whole entry, looked up)": "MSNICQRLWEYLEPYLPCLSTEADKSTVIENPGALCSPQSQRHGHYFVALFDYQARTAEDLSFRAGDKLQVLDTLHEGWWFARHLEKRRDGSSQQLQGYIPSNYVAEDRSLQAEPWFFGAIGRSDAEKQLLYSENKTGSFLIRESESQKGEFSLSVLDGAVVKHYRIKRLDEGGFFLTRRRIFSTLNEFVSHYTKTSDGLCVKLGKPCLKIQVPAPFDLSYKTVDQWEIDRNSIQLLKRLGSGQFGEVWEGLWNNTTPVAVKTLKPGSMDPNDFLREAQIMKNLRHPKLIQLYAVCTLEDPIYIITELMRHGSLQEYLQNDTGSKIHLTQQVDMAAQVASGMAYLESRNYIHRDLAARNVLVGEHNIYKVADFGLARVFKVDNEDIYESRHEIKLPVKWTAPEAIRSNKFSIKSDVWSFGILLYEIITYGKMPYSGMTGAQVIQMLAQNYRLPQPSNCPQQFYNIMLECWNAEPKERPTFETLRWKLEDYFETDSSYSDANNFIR", "chain of UniProt Q9NQU5 (whole entry, looked up)": "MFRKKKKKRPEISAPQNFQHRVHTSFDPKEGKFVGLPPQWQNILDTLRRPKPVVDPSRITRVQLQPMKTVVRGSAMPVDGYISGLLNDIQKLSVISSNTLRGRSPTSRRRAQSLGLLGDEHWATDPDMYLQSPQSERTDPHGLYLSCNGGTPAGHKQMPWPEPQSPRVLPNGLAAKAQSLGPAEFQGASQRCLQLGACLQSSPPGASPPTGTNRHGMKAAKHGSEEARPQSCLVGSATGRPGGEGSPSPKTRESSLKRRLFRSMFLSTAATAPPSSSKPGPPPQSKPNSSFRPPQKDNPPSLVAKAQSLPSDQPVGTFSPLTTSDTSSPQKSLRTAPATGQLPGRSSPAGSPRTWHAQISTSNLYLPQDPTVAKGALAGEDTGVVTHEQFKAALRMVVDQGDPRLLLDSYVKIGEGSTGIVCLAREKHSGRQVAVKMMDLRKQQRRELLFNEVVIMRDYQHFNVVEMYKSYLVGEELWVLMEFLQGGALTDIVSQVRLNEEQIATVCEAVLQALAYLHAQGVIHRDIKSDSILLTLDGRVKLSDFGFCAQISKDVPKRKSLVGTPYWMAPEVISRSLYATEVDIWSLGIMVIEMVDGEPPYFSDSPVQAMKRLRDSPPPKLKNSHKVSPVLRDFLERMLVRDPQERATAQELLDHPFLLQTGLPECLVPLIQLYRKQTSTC", "chain of UniProt Q15349 (whole entry, looked up)": "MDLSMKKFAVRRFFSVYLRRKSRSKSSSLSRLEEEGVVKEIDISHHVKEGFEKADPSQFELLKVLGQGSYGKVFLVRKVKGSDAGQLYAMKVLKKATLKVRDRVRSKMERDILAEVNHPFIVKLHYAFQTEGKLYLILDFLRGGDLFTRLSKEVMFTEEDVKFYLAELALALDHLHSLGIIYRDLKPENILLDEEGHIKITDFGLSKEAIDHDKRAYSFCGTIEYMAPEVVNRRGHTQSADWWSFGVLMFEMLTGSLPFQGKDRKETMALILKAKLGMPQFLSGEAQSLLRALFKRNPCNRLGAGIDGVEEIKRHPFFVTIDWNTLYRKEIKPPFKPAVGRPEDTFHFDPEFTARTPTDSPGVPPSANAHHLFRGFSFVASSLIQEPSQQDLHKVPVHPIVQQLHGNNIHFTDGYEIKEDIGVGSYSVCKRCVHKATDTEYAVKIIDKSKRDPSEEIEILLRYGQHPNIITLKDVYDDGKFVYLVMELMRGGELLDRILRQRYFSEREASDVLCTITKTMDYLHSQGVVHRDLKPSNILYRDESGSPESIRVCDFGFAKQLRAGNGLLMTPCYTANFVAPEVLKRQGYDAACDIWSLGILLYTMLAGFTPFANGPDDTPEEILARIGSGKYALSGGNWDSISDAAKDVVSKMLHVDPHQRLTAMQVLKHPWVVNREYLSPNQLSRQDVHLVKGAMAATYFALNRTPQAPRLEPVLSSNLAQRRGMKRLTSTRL", "chain of UniProt Q02763 (whole entry, looked up)": "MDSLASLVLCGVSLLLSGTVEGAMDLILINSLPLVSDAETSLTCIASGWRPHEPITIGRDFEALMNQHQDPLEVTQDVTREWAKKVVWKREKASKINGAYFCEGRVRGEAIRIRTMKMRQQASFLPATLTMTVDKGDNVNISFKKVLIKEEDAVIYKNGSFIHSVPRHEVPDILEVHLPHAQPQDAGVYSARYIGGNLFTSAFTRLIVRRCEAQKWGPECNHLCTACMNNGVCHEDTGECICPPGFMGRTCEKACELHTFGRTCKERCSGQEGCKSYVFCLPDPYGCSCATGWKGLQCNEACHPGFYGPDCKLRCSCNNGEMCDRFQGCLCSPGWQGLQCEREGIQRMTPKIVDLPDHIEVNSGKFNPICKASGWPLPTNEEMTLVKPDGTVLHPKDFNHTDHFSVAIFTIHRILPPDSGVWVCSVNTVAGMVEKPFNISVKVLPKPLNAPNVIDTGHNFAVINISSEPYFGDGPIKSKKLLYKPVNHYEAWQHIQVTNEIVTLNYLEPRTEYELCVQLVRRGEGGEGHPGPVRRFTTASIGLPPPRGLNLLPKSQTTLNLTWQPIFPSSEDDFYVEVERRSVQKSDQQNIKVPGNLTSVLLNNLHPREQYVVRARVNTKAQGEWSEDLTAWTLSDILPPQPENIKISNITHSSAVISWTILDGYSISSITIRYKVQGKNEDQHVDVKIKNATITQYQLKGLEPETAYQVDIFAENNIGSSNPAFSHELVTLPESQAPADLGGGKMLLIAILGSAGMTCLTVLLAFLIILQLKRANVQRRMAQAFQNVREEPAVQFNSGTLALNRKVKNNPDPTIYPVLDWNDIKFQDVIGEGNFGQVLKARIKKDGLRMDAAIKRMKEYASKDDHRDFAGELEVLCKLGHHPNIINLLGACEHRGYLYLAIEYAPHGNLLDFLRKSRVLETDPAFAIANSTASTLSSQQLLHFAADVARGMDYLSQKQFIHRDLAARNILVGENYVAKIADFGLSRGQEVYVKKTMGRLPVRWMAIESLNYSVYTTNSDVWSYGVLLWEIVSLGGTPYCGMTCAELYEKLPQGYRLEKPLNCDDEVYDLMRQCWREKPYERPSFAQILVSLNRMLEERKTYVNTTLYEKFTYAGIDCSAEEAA", "chain of UniProt Q8WTQ7 (whole entry, looked up)": "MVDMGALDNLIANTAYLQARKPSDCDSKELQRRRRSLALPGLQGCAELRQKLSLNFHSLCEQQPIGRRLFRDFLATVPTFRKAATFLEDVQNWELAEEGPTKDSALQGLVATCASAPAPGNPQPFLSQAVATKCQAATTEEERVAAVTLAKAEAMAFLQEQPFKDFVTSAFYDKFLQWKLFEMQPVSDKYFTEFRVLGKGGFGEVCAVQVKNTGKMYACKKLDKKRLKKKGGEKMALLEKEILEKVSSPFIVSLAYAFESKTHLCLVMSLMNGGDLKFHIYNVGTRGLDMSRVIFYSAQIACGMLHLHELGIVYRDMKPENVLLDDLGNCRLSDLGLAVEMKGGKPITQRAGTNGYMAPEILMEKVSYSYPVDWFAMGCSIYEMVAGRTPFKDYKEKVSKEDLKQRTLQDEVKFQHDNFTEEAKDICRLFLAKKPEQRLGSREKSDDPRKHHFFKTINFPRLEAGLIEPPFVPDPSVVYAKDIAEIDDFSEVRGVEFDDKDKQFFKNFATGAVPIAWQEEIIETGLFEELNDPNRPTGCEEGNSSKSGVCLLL", "chain of UniProt P06241 (whole entry, looked up)": "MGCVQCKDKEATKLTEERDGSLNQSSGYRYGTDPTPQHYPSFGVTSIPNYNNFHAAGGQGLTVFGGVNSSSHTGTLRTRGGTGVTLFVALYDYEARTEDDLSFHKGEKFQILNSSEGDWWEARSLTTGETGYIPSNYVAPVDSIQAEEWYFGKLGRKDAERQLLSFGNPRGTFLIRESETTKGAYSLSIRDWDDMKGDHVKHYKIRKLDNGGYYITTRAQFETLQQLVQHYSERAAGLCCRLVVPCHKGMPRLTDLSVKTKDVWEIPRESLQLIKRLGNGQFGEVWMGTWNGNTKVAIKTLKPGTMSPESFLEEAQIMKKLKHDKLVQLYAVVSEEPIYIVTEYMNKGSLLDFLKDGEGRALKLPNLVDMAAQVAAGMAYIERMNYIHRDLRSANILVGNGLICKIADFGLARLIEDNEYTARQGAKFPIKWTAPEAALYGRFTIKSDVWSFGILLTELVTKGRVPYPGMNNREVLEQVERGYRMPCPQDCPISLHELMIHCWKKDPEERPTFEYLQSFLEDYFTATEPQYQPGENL", "chain of UniProt P27361 (whole entry, looked up)": "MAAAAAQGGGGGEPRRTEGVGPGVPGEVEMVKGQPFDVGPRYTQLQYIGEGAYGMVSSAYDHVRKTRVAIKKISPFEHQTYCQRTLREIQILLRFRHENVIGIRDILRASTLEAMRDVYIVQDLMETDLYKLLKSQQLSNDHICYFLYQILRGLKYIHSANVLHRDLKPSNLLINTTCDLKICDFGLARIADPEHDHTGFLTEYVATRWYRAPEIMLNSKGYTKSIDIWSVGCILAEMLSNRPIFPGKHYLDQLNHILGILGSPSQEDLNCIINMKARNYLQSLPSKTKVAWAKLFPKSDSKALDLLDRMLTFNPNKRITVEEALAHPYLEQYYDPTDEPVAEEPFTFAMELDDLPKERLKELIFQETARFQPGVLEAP"}
{"data": "Study 1", "Compound": "Nc1c(C(=O)NCc2ccc(C(=O)NCCCC3CCCCC3)cc2)cnn1-c1ccccc1", "effect on": "cell-free assay", "technique": "competition with immobilised ligand", "tested at": "0.1 µM"}
{"target": "Serine/threonine-protein kinase PAK 6 (PAK6, Homo sapiens, UniProt Q9NQU5)", "remaining binding [%]": 100}
{"target": "Tyrosine-protein kinase Fyn (FYN, Homo sapiens, UniProt P06241)", "remaining binding [%]": 100}
{"target": "cAMP-dependent protein kinase catalytic subunit beta (PRKACB, Homo sapiens, UniProt P22694)", "remaining binding [%]": 82}
{"target": "Tyrosine-protein kinase SYK (SYK, Homo sapiens, UniProt P43405)", "remaining binding [%]": 74}
{"data": "Study 2", "SMILES": "O=C1NC(=O)C(c2cn(CCCn3ccnc3)c3ccccc23)=C1Nc1ccccc1", "effect on": "enzyme activity", "action": "inhibitor", "tested at": "0.5 µM", "reference": "control"}
{"target": "Serine/threonine-protein kinase Nek1 (NEK1, Homo sapiens, UniProt Q96PY6)", "remaining activity": "114%"}
{"target": "Tyrosine-protein kinase Mer (MERTK, Homo sapiens, UniProt Q12866)", "remaining activity": "86.1%"}
{"target": "Ribosomal protein S6 kinase alpha-2 (RPS6KA2, Homo sapiens, UniProt Q15349)", "remaining activity": "3.17%"}
{"target": "Mitogen-activated protein kinase 3 (MAPK3, Homo sapiens, UniProt P27361)", "remaining activity": "103%"}
{"target": "Mitogen-activated protein kinase kinase kinase 5 (MAP3K5, Homo sapiens, UniProt Q99683)", "remaining activity": "105%"}
{"target": "Serine/threonine-protein kinase TAO2 (TAOK2, Homo sapiens, UniProt Q9UL54)", "remaining activity": "92.3%"}
{"target": "Angiopoietin-1 receptor (TEK, Homo sapiens, UniProt Q02763)", "remaining activity": "92.3%"}
{"target": "Tyrosine-protein kinase FRK (FRK, Homo sapiens, UniProt P42685)", "remaining activity": "107%"}
{"target": "Macrophage-stimulating protein receptor (MST1R, Homo sapiens, UniProt Q04912)", "remaining activity": "93.5%"}
{"target": "Rhodopsin kinase GRK7 (GRK7, Homo sapiens, UniProt Q8WTQ7)", "remaining activity": "86.3%"}
{"data": "Study 3", "target": "RING finger protein unkempt homolog, zinc fingers 1-6, SBP tag (UNK, Homo sapiens, UniProt Q9C0B0, residues 30-357)", "technique": "RNA Bind-n-Seq", "form": "RNA", "sample": "in vitro", "tested at": "100 nM", "notes": "RNA with constant flanks, vertebrate orthologous sites, ends assumed", "reference": "input RNA pool", "direction": "higher = stronger binding", "all sequences stand within": "GGGAGUUCUACAGUCCGACGAUC … CAACAGAGGAUUGAGCAUCA", "chain of UniProt Q9C0B0 (30-357, looked up)": "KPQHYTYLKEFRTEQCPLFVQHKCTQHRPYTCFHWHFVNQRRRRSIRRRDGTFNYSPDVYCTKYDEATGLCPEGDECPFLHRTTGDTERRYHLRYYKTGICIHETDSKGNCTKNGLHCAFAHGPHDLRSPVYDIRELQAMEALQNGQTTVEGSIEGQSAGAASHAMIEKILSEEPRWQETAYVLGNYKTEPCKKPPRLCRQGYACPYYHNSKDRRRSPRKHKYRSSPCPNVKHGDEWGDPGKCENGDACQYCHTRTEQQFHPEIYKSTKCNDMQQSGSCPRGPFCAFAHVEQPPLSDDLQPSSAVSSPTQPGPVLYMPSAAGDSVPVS"}
{"Strand": "UCUCUCACUUAGCUGUGUCCAAAAUUGCUAUGAGGGUUGGAAACAUUGAUUAGUUUCAUGUAGAACUACACUGGCAGGUGCUCAAUUACCAUCAUAGCAAGGUCAAAUACCAUCACAGUA", "bound/input enrichment [ratio]": 1.44}
{"Strand": "AAGCUCUAGUUUCUAACAACUGACACCCUAAAAGAUUUAGAAAAGGUUUACAACACAAUCUAGUUUACGAAGAAAUCUUGUGCUAGAAUACUUUUCAAAGUAUUUUUGAAUACCAUUAAA", "bound/input enrichment [ratio]": 0.363}
{"Strand": "AUUAAAUGUGUAUCAGAUGCUGGAUGUAACAUUAAAUCAUCAUUUAUAAUAGAUGUUAAUUUGUAAUAACUAAGCUACAAAUAGGUUUCUUUGAACCAGAGAUGCACUGCCCUUGUCUGA", "bound/input enrichment [ratio]": 0.144}
{"Strand": "UUUACUUUGCUUUCAUUUUAUUCCUUUAUUUCUUCCUUCCUUCCUUUUUUCUUUUUUUUUUUGGUAGUUGUUACCACGCCAUUUUACGUCUCCUUCACUGAAGGGCUAGAGUUUUAACUU", "bound/input enrichment [ratio]": 4.49}
{"Strand": "CUUCCUCCAACUUCAGUUUUUCAGGUUGUAGCUGUUCCAUCUUUUCUUCUUCCCCUCCUCUCACUGUUGCUUUCCUUUCCUUUCUGUCUGCCCAACUCCAGACACAUGAGCUCUUCCCCU", "bound/input enrichment [ratio]": 1.28}
{"Strand": "CUUUAUGGGCCUCGAAGAGUUGAAAUAAUGGAAGAAGAAAGUGAACAGUAAUCUUCAAUUUAGUAUUUAUGCAGAGGUGUGAAAUAAAUGUUUUUUUGUUGUUAUUGUUAUAAUCUUGAG", "bound/input enrichment [ratio]": 0.745}
{"Strand": "CUCAUUUCUAGGUUGGAUCUACCGGAAAAGUCAUCGGAAUUGACCACAUUAAAGAGCUAGUAGACGACUCAAUAAAUAAUGUCAGAAAGGAUGAUCCGAUGCUUUUGUCUUCAGGGAGAG", "bound/input enrichment [ratio]": 0.624}
{"Strand": "UACAAAUGUGUAUCGAAUGCUUGGUGUAACAUUAAACCAUCAUUUAGAAUAGAUGUCGAUUUGUUAUAAUUAAGCUACAAAUAGGUUUCUUUAAACCAGAGAUGCACUGCCCUUGUCUGA", "bound/input enrichment [ratio]": 0.268}
{"data": "Study 4", "target": "Prothrombin, mature alpha-thrombin (F2, Homo sapiens, UniProt P00734)", "technique": "aptamer microarray, sandwich", "form": "DNA with 2'F-ANA", "sample": "in vitro", "tested at": "200 nM", "notes": "whole 15-mer aptamer, many near background", "with": "Cy3 exosite-II aptamer, 400 nM", "direction": "higher = stronger binding", "strand": "GGTTGGTGTGGTTGG"}
{"Modification": "2'F-ANA at 2 4 5 8 12 13 15", "mean fluorescence intensity [a.u.]": 89.9}
{"Modification": "2'F-ANA at 1 5 7 8 10 11 12 15", "mean fluorescence intensity [a.u.]": 49.2}
{"Modification": "2'F-ANA at 4 5 6 10 11 14", "mean fluorescence intensity [a.u.]": 45}
{"Modification": "2'F-ANA at 2 3 4 8 9 10 12 13 14", "mean fluorescence intensity [a.u.]": 171}
{"Modification": "2'F-ANA at 2 7", "mean fluorescence intensity [a.u.]": 498}
{"Modification": "2'F-ANA at 5 7 8 11 12 14", "mean fluorescence intensity [a.u.]": 47.5}
{"Modification": "2'F-ANA at 3 4 5 7 8 9 10 11 14", "mean fluorescence intensity [a.u.]": 53.2}
{"Modification": "2'F-ANA at 3 8 10 11 13 14", "mean fluorescence intensity [a.u.]": 414}
